Experimental data from different studies.
ACHE: Acetylcholinesterase (ACHE, Homo sapiens, UniProt P22303)
Chain of UniProt P22303 (whole entry, looked up): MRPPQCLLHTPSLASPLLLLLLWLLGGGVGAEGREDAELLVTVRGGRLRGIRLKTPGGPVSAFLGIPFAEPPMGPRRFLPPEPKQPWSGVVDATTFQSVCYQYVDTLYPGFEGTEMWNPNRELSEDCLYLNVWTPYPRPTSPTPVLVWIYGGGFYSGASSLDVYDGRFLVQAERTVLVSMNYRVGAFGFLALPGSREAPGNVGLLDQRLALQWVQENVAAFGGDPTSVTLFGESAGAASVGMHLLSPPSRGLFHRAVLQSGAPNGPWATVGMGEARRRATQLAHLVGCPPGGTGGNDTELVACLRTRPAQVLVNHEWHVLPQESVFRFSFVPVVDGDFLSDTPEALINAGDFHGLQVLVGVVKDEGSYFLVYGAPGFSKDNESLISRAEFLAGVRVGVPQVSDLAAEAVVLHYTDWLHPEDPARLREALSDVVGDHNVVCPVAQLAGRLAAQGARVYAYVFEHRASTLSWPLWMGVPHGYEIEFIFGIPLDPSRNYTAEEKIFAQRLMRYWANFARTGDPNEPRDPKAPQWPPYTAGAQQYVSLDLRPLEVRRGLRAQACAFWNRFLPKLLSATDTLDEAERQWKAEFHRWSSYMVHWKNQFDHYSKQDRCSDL
Chain of UniProt P41143 (whole entry, looked up): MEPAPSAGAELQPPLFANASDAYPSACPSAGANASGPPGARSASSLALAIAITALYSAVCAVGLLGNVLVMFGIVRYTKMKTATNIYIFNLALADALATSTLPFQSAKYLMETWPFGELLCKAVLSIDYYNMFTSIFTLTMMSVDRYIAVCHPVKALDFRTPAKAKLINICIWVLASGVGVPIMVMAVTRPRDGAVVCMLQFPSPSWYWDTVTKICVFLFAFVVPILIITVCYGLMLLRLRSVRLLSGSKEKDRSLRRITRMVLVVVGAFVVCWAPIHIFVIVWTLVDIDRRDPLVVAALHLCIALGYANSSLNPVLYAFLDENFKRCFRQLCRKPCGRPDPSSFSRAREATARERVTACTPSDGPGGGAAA
Chain of UniProt Q08210 (whole entry, looked up): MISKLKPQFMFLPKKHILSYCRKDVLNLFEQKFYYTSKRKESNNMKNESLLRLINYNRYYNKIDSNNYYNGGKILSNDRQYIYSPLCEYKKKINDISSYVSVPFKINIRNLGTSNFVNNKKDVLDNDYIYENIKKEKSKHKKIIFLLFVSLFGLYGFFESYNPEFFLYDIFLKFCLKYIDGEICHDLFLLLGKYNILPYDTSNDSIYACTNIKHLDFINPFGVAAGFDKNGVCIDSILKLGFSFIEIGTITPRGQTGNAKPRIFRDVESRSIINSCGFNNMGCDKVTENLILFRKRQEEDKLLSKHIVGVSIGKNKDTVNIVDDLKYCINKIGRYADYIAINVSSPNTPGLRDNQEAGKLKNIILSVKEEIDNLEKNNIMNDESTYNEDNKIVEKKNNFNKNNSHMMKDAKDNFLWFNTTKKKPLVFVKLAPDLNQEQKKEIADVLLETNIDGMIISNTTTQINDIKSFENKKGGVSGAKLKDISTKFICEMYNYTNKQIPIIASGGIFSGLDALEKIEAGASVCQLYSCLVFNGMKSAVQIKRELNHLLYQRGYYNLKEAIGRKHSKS
Chain of UniProt O15075 (whole entry, looked up): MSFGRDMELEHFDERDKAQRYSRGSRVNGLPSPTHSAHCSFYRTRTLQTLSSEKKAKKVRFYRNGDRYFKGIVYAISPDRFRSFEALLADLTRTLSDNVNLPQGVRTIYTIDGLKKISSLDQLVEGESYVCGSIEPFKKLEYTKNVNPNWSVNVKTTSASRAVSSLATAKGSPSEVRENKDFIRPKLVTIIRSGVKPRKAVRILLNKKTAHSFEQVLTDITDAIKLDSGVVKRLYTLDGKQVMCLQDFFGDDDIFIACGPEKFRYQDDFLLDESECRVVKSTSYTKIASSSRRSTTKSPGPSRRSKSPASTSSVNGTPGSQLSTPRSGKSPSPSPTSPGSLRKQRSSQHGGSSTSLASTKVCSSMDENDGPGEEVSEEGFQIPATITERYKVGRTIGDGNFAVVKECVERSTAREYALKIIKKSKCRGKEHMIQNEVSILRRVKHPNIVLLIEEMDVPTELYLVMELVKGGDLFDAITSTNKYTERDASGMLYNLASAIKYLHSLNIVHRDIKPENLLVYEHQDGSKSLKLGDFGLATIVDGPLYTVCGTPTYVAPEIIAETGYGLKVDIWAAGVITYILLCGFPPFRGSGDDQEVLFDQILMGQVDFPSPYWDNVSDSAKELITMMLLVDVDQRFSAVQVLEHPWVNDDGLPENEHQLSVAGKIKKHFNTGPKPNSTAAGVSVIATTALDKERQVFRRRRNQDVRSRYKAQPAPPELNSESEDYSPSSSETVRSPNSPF
Chain of UniProt Q9Y271 (whole entry, looked up): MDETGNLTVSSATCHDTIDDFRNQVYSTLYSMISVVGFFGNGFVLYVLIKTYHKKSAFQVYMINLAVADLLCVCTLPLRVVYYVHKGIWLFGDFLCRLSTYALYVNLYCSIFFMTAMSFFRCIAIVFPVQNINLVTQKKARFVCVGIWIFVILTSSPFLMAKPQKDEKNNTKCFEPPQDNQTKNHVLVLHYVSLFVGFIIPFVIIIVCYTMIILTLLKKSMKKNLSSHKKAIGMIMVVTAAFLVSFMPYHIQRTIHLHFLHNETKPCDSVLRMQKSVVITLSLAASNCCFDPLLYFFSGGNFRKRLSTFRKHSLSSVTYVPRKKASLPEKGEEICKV
Chain of UniProt P08908 (whole entry, looked up): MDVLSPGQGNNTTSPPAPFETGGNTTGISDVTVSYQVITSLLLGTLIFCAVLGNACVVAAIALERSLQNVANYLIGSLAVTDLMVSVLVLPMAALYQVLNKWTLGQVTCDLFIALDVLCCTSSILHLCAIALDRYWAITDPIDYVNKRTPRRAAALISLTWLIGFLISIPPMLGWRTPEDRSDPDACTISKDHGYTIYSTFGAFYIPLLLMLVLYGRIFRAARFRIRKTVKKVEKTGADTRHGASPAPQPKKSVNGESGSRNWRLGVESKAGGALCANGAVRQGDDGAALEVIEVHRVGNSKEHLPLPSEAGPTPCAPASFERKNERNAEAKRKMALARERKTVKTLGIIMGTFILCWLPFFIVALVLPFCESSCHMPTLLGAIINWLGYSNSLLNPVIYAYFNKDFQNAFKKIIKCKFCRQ
Chain of UniProt P08172 (whole entry, looked up): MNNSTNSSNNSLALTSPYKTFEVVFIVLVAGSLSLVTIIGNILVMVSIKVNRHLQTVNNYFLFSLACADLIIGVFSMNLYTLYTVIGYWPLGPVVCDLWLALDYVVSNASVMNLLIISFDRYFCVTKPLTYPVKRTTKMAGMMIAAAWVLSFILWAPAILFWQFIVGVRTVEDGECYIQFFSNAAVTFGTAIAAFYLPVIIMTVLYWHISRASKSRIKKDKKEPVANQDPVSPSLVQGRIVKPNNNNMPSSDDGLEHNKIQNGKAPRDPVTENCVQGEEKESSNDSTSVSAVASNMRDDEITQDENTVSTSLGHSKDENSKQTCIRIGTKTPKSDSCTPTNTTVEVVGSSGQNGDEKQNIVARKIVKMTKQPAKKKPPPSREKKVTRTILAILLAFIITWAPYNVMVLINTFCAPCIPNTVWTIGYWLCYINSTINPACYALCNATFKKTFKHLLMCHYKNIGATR
Chain of UniProt O15197 (whole entry, looked up): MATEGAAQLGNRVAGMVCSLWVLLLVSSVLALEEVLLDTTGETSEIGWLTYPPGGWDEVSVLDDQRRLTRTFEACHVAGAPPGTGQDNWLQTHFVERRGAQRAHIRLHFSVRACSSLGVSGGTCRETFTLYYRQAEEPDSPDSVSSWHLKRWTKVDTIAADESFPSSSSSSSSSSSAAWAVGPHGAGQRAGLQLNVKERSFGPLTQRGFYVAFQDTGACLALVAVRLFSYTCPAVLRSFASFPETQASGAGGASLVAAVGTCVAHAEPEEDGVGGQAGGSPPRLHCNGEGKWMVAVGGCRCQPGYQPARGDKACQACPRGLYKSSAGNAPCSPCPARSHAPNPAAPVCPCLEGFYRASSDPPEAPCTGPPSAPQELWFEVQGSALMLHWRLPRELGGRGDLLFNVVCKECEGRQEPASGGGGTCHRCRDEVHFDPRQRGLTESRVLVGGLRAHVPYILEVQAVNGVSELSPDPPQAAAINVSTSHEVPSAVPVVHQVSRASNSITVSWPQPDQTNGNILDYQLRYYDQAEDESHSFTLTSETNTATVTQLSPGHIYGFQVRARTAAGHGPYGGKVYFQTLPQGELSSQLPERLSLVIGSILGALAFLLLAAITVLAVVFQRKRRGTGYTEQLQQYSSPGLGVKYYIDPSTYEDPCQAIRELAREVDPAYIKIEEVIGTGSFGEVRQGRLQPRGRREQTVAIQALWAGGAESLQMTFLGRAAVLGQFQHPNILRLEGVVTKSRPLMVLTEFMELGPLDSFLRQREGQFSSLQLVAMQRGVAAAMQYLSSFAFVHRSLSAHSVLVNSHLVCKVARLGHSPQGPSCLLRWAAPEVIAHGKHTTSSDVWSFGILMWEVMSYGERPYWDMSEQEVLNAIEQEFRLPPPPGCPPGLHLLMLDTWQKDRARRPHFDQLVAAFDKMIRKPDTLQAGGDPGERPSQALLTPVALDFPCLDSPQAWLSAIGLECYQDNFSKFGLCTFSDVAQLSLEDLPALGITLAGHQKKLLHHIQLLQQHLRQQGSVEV

Structure (SMILES)	target	observed	action	technique	concentration	endpoint	result
CN1CCC[C@H]1c1cccnc1	CHRM2 (Homo sapiens, UniProt P08172)	ligand displacement			50 µM	inhibition	-1.33%
CN1C(=S)N(c2ccccc2)C(=O)/C1=C1/C(=O)N(C)c2ccc(Cl)cc21	ACHE	enzyme activity	inhibitor	Ellman	10 nM	inhibition	1%
[2H]c1c([2H])c([C@]2([2H])CCCN2C(=O)C(C)(C)Oc2ccc3cn[nH]c3c2)c([2H])c([2H])c1C([2H])([2H])[2H]	MINK1 (Homo sapiens, UniProt Q8N4C8)	binding		competition with immobilised ligand	1 µM	remaining binding	100%
c1cncc([C@@H]2CCCN2)c1	OPRD1 (Homo sapiens, UniProt P41143)	ligand displacement			50 µM	inhibition	-11%
Nc1ncc(-c2nc(N3CCOCC3)nc(N3CCOCC3)n2)c(C(F)F)n1	EPHB6 (Homo sapiens, UniProt O15197)	cell-free assay		competition with immobilised ligand	10 µM	remaining binding	50%
CC(C)C[C@H]1C(=O)N2CCC[C@H]2[C@]2(O)O[C@](NC(=O)[C@@H]3C=C4c5cccc6[nH]c(Br)c(c56)C[C@H]4[N+](C)(C)C3)(C(C)C)C(=O)N12	HTR1A (Homo sapiens, UniProt P08908)	ligand displacement		radioligand	10 µM	inhibition	99.4%
CC(C)CC(=O)OC[C@H]1O[C@@](C#N)(c2ccc3c(N)ncnn23)[C@H](O)[C@@H]1O	CYSLTR1 (Homo sapiens, UniProt Q9Y271)	cell-free assay			20 µM	inhibition	-7%
Cc1cc(=O)oc2c1ccc1oc(C(O)c3ccc(Cl)cc3)c(C)c12 (stereo not shown)	PFF0160c (Plasmodium falciparum, UniProt Q08210)	enzyme activity	inhibitor	absorbance		IC50	325 nM
Nc1ccncc1	SCN1A (Homo sapiens, UniProt P35498)	ion current	inhibitor	patch clamp	3 µM	inhibition	-18.3%
CCc1ccc(N2C(=O)/C(=C3/C(=O)N(C)c4ccc(Cl)cc43)NC2=S)cc1	MAL12 (Saccharomyces cerevisiae S288c, UniProt P53341)	enzyme activity	inhibitor	absorbance	100 µM	inhibition	42.3%
Cc1nn(C)cc1-c1nc2c(N3CCN(Cc4ccc(Cl)cc4)CC3)c(Cl)cnc2[nH]1	DCLK1 (Homo sapiens, UniProt O15075)	binding		competition with immobilised ligand	1 µM	remaining binding	80%
CN1C(=O)/C(=N\Nc2ncc(-c3cc4ccccc4oc3=O)s2)c2cc(Cl)ccc21	ACHE	enzyme activity	inhibitor	Ellman	10 nM	inhibition	15%
C#Cc1n[nH]c2c(-c3cn([C@@H](C)c4ccccn4)c(=O)[nH]c3=O)cc(F)cc12	LRRK2 (Homo sapiens, UniProt Q5S007)	enzyme activity	inhibitor		0.1 µM	inhibition	5.9%

A few entries again:
Structure (SMILES)	target	observed	action	technique	concentration	endpoint	result
CC(C)CC(=O)OC[C@H]1O[C@@](C#N)(c2ccc3c(N)ncnn23)[C@H](O)[C@@H]1O	CYSLTR1 (Homo sapiens, UniProt Q9Y271)	cell-free assay			20 µM	inhibition	-7%
